Experimental data of several laboratories.
A part holds a random share of what one study measured. Several values in a cell are separate wells, animals, samples, runs or records.
UniProt P07949, sequence (whole entry, unmodified, looked up): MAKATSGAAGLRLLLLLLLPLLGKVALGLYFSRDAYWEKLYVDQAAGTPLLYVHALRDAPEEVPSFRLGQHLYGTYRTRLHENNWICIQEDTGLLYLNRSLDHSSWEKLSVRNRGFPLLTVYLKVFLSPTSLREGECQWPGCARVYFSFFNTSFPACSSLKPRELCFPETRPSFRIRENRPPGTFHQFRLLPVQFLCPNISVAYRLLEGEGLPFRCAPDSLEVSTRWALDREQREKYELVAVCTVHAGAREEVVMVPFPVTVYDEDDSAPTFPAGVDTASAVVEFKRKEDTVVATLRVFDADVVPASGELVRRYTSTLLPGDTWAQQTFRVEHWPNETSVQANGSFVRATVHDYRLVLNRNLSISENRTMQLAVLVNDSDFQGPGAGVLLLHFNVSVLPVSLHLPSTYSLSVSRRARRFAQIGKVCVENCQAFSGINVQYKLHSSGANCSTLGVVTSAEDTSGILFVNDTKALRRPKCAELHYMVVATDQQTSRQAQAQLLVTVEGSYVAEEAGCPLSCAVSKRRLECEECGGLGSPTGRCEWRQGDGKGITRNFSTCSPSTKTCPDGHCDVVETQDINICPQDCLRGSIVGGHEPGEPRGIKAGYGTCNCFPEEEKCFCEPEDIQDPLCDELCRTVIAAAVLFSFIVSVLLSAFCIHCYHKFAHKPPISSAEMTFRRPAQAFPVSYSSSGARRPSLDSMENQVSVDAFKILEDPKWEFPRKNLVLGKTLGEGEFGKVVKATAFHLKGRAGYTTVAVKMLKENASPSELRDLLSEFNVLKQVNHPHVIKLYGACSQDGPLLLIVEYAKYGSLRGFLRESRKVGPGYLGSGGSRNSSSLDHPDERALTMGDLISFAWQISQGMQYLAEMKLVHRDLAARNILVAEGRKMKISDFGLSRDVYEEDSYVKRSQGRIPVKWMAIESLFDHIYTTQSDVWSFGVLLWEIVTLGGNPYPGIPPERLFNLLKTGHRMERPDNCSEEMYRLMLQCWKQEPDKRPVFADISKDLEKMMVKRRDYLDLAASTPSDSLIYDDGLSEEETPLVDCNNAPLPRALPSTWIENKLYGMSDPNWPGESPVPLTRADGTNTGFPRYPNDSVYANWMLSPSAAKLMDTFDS
UniProt P42336, sequence (whole entry, unmodified, looked up): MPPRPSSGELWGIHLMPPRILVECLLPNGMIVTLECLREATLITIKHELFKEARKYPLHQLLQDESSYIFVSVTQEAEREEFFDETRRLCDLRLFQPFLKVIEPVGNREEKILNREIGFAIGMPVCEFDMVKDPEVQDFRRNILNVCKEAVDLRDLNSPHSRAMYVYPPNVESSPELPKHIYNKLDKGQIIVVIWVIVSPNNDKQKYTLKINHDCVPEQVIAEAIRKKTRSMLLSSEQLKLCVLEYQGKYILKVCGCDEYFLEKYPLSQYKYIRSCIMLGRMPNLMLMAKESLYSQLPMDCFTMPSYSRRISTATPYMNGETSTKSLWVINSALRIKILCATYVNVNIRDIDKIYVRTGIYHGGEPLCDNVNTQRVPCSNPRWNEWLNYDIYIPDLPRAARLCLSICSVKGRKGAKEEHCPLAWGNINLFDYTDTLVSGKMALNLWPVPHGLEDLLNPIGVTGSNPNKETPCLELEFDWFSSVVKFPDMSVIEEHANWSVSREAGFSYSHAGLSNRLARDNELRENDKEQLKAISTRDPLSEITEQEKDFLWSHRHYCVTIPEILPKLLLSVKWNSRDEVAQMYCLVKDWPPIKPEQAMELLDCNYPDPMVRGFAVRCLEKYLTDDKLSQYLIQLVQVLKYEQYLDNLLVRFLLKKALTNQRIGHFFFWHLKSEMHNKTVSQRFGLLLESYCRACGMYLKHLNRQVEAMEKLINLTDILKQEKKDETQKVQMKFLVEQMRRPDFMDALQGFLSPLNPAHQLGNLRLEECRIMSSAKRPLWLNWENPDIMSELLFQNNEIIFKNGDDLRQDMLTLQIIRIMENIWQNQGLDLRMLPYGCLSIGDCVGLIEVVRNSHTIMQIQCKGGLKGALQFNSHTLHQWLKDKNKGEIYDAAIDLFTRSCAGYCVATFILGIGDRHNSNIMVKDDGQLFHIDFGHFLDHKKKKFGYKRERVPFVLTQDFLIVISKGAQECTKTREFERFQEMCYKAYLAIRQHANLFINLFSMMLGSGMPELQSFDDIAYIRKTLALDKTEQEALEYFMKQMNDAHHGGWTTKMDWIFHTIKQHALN
UniProt P49841, sequence (whole entry, looked up): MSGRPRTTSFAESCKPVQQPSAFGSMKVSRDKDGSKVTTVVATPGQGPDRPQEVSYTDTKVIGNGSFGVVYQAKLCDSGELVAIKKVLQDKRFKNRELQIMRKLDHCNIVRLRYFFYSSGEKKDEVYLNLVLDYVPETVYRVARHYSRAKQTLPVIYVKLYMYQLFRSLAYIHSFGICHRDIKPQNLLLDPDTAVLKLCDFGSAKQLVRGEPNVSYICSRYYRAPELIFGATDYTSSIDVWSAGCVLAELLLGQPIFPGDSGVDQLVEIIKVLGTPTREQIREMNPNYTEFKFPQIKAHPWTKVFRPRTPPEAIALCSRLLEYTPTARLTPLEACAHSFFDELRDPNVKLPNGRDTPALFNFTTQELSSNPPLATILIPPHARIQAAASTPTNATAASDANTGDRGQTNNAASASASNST
UniProt Q9Y243, sequence (whole entry, looked up): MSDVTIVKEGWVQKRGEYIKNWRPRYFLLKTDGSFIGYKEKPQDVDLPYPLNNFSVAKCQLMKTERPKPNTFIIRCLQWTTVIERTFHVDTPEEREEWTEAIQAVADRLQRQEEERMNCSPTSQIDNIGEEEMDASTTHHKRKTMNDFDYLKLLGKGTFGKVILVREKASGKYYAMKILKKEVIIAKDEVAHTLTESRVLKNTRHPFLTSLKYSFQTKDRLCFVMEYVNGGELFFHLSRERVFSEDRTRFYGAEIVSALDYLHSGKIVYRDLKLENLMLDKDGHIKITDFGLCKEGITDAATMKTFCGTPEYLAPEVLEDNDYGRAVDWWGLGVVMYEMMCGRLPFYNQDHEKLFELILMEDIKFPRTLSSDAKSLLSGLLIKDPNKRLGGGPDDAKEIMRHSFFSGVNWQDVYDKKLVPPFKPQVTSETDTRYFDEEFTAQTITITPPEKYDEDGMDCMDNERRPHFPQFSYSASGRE

Sample 1
SMILES: O=C(Nc1ccccc1)Nc1cccc(Oc2ccc3nccn3n2)c1
Tested at: 1 µM
Measurement: remaining binding
Receptor-interacting serine/threonine-protein kinase 1 (RIPK1, Homo sapiens, UniProt Q13546); binding: 98%
Tyrosine-protein kinase BTK (BTK, Homo sapiens, UniProt Q06187); binding, competition with immobilised ligand: 100%
Beta-adrenergic receptor kinase 1 (GRK2, Homo sapiens, UniProt P25098); binding: 100%
Phosphatidylinositol 4,5-bisphosphate 3-kinase catalytic subunit alpha isoform (PIK3CA, Homo sapiens, UniProt P42336, E545A); binding: 100%
Inhibitor of nuclear factor kappa-B kinase subunit beta (IKBKB, Homo sapiens, UniProt O14920); binding, competition with immobilised ligand: 100%
RAF proto-oncogene serine/threonine-protein kinase (RAF1, Homo sapiens, UniProt P04049); binding, competition with immobilised ligand: 79%
Ribosomal protein S6 kinase alpha-6, N-terminal kinase domain (RPS6KA6, Homo sapiens, UniProt Q9UK32); binding, competition with immobilised ligand: 100%
Serine/threonine-protein kinase ICK (CILK1, Homo sapiens, UniProt Q9UPZ9); binding: 100%
Phosphatidylinositol 4,5-bisphosphate 3-kinase catalytic subunit alpha isoform (PIK3CA, Homo sapiens, UniProt P42336, E545K); binding: 99%
Serine/threonine-protein kinase TAO3 (TAOK3, Homo sapiens, UniProt Q9H2K8); cell-free binding: 100%
Mitogen-activated protein kinase 9 (MAPK9, Homo sapiens, UniProt P45984); binding, competition with immobilised ligand: 100%
Homeodomain-interacting protein kinase 4 (HIPK4, Homo sapiens, UniProt Q8NE63); cell-free binding: 91%
Cyclin-dependent kinase 16 (CDK16, Homo sapiens, UniProt Q00536); binding: 100%
Serine/threonine-protein kinase N2 (PKN2, Homo sapiens, UniProt Q16513); binding: 100%
Hormonally up-regulated neu tumor-associated kinase (HUNK, Homo sapiens, UniProt P57058); binding: 82%
Leukocyte tyrosine kinase receptor (LTK, Homo sapiens, UniProt P29376); binding: 100%
Casein kinase II subunit alpha' (CSNK2A2, Homo sapiens, UniProt P19784); binding: 100%
Serine/threonine-protein kinase VRK2 (VRK2, Homo sapiens, UniProt Q86Y07); binding, competition with immobilised ligand: 100%
Serine/threonine-protein kinase SIK2 (SIK2, Homo sapiens, UniProt Q9H0K1); binding, competition with immobilised ligand: 88%
RAC-gamma serine/threonine-protein kinase (AKT3, Homo sapiens, UniProt Q9Y243); binding: 80%

Sample 2
SMILES: COc1cc(-c2nc3ccc(C(=O)NCCCN4CCN(c5cccc(C)c5C)CC4)cc3n2C2CCC2)cc(OC)c1OC
Measurement: remaining binding
Serine/threonine-protein kinase MRCK beta (CDC42BPB, Homo sapiens, UniProt Q9Y5S2); binding, competition with immobilised ligand; 1 µM: 83%
Activin receptor type-1B (ACVR1B, Homo sapiens, UniProt P36896); binding, competition with immobilised ligand; 1 µM: 66%
High affinity nerve growth factor receptor (NTRK1, Homo sapiens, UniProt P04629); binding, competition with immobilised ligand; 1 µM: 100%
Mitogen-activated protein kinase kinase kinase kinase 3 (MAP4K3, Homo sapiens, UniProt Q8IVH8); binding, competition with immobilised ligand; 1 µM: 98%
FLT3 ITD D835V human; KINOMEscan; 1000 nM; reference: DMSO control: 89%
Receptor-type tyrosine-protein kinase FLT3 (FLT3, Homo sapiens, UniProt P36888, K663Q); binding, competition with immobilised ligand; 1 µM: 97%
Glycogen synthase kinase-3 beta (GSK3B, Homo sapiens, UniProt P49841); binding, competition with immobilised ligand; 1 µM: 83%
Mast/stem cell growth factor receptor Kit (KIT, Homo sapiens, UniProt P10721, V559D/V654A); binding, competition with immobilised ligand; 1 µM: 100%
Proto-oncogene tyrosine-protein kinase receptor Ret (RET, Homo sapiens, UniProt P07949); binding, competition with immobilised ligand; 1 µM: 100%
Ephrin type-B receptor 1 (EPHB1, Homo sapiens, UniProt P54762); binding, competition with immobilised ligand; 1 µM: 95%
Cyclin-dependent kinase 3 (CDK3, Homo sapiens, UniProt Q00526); binding, competition with immobilised ligand; 1 µM: 92%
Proto-oncogene tyrosine-protein kinase receptor Ret (RET, Homo sapiens, UniProt P07949, M918T); binding, competition with immobilised ligand; 1 µM: 85%
Receptor-type tyrosine-protein kinase FLT3, autoinhibited (FLT3, Homo sapiens, UniProt P36888); binding, competition with immobilised ligand; 1 µM: 97%

Sample 3
Compound: Cc1ccc(O)c(C)c1-c1cnc2[nH]c(-c3cnc(N4CCC5(CC4)CC(N4CCN(c6ccc(N[C@H]7CCC(=O)NC7=O)cc6F)CC4)CO5)nc3)cc2c1C#N (single isomer, unassigned)
Measurement: inhibition
PKMYT1: Membrane-associated tyrosine- and threonine-specific cdc2-inhibitory kinase (PKMYT1, Homo sapiens, UniProt Q99640)
UniProt Q99640, sequence (whole entry, looked up): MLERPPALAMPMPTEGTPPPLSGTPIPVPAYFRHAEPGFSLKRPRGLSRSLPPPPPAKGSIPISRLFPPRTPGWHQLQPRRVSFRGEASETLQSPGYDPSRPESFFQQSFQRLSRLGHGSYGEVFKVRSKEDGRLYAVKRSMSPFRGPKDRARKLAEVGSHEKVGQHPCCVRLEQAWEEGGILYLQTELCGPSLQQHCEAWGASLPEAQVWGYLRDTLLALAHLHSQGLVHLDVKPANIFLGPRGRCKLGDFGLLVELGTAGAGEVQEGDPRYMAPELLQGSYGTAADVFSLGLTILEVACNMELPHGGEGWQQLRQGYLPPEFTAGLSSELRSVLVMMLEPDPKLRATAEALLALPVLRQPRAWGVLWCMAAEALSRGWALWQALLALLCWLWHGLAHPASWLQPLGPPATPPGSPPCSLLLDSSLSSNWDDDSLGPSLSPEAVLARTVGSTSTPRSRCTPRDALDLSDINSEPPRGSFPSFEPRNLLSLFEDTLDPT
NCI-H1568; cell growth; 1111.11 nM: 40.4%
PKMYT1; binding, HTRF; 370.37 nM: 99.8% and 97.3%
PKMYT1; binding, HTRF; 41.15 nM: 94.7% and 93%
HCC1569; CDK1 phosphorylation, Jess capillary immunoassay, item: CDK1 phospho-Thr14; 1 nM, 24 h: 14.4%
HCC1569; automated immunoblotting, item: CDK1 phospho-Thr14; concentration not given, 8 h after washout: 57.7%
PKMYT1; 1 µM: 97.1%
PKMYT1; enzyme activity, inhibitor; 0.1111 µM: 95.9%
KLE; cell proliferation; 13.72 nM: -4.13% and -2.54% and -3.69%
MDA-MB-436; cell proliferation; 1.52 nM: 0.42% and -5.8% and -3.91%

Sample 4
Compound: C[C@@H]1CN(c2ccc(-c3cc(C(=O)NCCOCCOCCOCCOCCNC(=O)Cn4cc(-c5[nH]cc(C(=O)N[C@@H](CC(N)=O)c6ccc(F)c(Cl)c6)c5-c5ccc(Cl)cc5F)cn4)ccc3F)cc2NC(=O)c2c[nH]c(=O)cc2C(F)(F)F)C[C@H](C)N1C
Effect on: thermal unfolding
Technique: differential scanning fluorimetry
Tested at: 5.5 µM
Direction: higher = more unfolded
Measurement: SYPRO Orange fluorescence
DCAF1: DDB1- and CUL4-associated factor 1 (DCAF1, Homo sapiens, UniProt Q9Y4B6)
UniProt Q9Y4B6, sequence (whole entry, looked up): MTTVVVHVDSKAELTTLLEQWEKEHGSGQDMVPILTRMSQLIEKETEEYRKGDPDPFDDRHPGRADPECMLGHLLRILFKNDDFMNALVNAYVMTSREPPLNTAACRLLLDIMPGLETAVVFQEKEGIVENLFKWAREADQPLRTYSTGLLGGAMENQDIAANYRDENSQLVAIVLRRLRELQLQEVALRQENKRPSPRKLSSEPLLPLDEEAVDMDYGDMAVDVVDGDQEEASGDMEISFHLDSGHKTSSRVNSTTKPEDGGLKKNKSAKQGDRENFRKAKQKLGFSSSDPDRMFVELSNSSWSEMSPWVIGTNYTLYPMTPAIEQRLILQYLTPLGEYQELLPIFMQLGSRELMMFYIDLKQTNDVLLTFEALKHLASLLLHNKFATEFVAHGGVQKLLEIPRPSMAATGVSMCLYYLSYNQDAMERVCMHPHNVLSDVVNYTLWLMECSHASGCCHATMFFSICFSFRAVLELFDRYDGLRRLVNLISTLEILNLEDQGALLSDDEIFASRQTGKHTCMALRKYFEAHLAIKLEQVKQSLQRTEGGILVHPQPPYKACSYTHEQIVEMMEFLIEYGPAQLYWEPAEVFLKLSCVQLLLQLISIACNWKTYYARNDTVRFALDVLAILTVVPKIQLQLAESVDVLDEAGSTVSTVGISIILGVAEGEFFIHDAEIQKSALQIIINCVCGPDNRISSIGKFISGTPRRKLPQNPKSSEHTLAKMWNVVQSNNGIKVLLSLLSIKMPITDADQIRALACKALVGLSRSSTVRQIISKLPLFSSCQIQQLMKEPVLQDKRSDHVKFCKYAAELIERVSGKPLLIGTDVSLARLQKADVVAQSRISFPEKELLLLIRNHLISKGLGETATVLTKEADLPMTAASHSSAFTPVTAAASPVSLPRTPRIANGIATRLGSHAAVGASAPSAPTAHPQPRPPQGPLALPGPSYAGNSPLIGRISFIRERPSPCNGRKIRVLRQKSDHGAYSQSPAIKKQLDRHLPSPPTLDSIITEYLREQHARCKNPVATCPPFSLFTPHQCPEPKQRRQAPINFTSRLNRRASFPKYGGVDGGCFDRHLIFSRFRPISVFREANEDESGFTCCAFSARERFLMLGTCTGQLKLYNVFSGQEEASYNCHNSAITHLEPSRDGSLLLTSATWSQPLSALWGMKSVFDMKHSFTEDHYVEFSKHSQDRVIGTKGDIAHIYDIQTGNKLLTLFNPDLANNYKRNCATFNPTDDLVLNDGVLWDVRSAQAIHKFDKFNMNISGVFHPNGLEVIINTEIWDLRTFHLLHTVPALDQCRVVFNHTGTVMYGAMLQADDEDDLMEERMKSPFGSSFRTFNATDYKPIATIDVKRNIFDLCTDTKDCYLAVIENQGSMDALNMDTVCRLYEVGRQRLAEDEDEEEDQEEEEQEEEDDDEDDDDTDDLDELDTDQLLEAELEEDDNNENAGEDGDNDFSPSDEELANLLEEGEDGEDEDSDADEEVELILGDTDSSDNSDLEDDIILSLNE
WDR5: WD repeat-containing protein 5 (WDR5, Homo sapiens, UniProt P61964)
DCAF1; 55.61 °C: 20800 a.u.
WDR5; 39.2 °C: 14300 a.u.
WDR5; 33.6 °C: 14400 a.u.
DCAF1; 75.61 °C: 48700 a.u.
DCAF1; 47.4 °C: 13400 a.u.
DCAF1; 64.21 °C: 54600 a.u.
DCAF1; 52.01 °C: 15800 a.u.

Repeated from above (sample 2):
High affinity nerve growth factor receptor (NTRK1, Homo sapiens, UniProt P04629); binding, competition with immobilised ligand; 1 µM: 100%
Mitogen-activated protein kinase kinase kinase kinase 3 (MAP4K3, Homo sapiens, UniProt Q8IVH8); binding, competition with immobilised ligand; 1 µM: 98%
FLT3 ITD D835V human; KINOMEscan; 1000 nM; reference: DMSO control: 89%
